# Experimental data pooled from the literature.
# Protocols differ between the studies behind these lines. Values joined by “and” are separate records of one study, mostly repeats; a detail may differ. ± gives the spread as reported.
Compound,test,system,setting,how to read,measurement,result
CCCCCCCCCCCCCCCC(=O)N[C@@H](CCC(=O)NCCCC[C@H](NC(=O)[C@H](C)NC(=O)[C@H](C)NC(=O)[C@H](CCC(N)=O)NC(=O)CNC(=O)[C@H](CCC(=O)O)NC(=O)[C@H](CC(C)C)NC(=O)[C@H](Cc1ccc(O)cc1)NC(=O)[C@H](CO)NC(=O)[C@H](CO)NC(=O)[C@@H](NC(=O)[C@H](CC(=O)O)NC(=O)[C@H](CO)NC(=O)[C@@H](NC(=O)[C@H](Cc1ccccc1)NC(=O)[C@@H](NC(=O)CNC(=O)[C@H](CCC(=O)O)NC(=O)[C@H](C)NC(=O)[C@@H](N)Cc1cnc[nH]1)[C@@H](C)O)[C@@H](C)O)C(C)C)C(=O)N[C@@H](CCC(=O)O)C(=O)N[C@@H](Cc1ccccc1)C(=O)N[C@H](C(=O)N[C@@H](C)C(=O)N[C@@H](Cc1c[nH]c2ccccc12)C(=O)N[C@@H](CC(C)C)C(=O)N[C@H](C(=O)N[C@@H](CCCNC(=N)N)C(=O)NCC(=O)N[C@@H](CCCNC(=N)N)C(=O)NCC(=O)O)C(C)C)[C@@H](C)CC)C(=O)O,,mouse DIO,"dose not given, day 32 chronic",,ALT,37.8 ± 3.7 U/L
Cc1cccc(-c2ccc3nc(NC(=O)C4CCCCC4)nn3c2)c1,,human liver microsomes,40 min,,metabolic turnover,100%
Cc1noc(C)c1Cn1cc(N2C(=O)CN(Cc3cccc(OS(=O)(=O)O)c3)C2=O)cn1,,"rat Sprague-Dawley male, plasma","oral, 100 mg/kg of parent drug, 4 h",,plasma concentration,334 ± 90.5 ng/mL
O=C(O)CCCCC1(N(CC(=O)O)CC(=O)O)CN(CC(=O)O)CCN(CC(=O)O)C1,"pH-potentiometry, refers to: logK2H",0.15 M NaClO4,25 °C,,protonation constant (log),6.85
CN1CCC[C@]1(C)/C=C/S(=O)(=O)NC(=O)Nc1c2c(cc3c1CC(O)C3)CCC2 (stereo partly drawn),,"human, plasma","oral, 100 mg twice daily of parent drug, day 1, metabolite of dosed drug",,AUC(0-24),160 µg·h/mL
CC[C@H](C)[C@H](NC(=O)C[C@H](NC(=O)CN1CCN2CCN(CC1)CC(=O)[O][Al]([18F])[O]C(=O)C2)C(=O)O)C(=O)N[C@H]1CCc2cccc3c2N(C1=O)[C@H](C(=O)NCc1cn[nH]n1)C3,PET,"C57BL/6J mice with MC-38 tumour, anti-PD-1 treated",30 min,,maximum tumour uptake,2.21 ± 0.7 %ID/g
COc1ccc2c(c1)CCn1c[n+]3c(c1-2)-c1ccc(OC)cc1CC3,,"female NSG mice, blood","6 mg/kg, day 14, 5 days per week",,mean corpuscular volume,47.6 ± 0.87 fL
O=C1C2CC3CC1CC(C(=O)N1CCN(c4ccc([N+](=O)[O-])c5ncccc45)CC1)(C3)C2,,"ICR mice male, plasma","oral, 5 mg/kg",,Tmax,0.25 h
CN1CCC[C@]1(C)/C=C/S(=O)(=O)NC(=O)Nc1c2c(cc3c1C(O)CC3)CCC2 (stereo partly drawn),,"human, plasma","oral, 50 mg twice daily of parent drug, day 14, metabolite of dosed drug",,AUC(0-24),208 µg·h/mL
CC[C@H](C)[C@@H](C(=O)N[C@@H](CC(C)C)C(=O)N[C@@H](CO)C(=O)N[C@@H](CO)C(=O)N[C@H](C(=O)N[C@@H](CCC(=O)O)C(=O)N[C@H](C(=O)NCC(=O)N[C@@H](CO)C(=O)N[C@@H](CC(N)=O)C(=O)N[C@H](C(=O)N1C[C@H](O)C[C@H]1C(N)=O)[C@@H](C)O)C(C)C)[C@@H](C)O)N(C)C(=O)[C@H](C)NC(=O)CN(C)C(=O)[C@H](Cc1ccccc1)NC(=O)[C@H](CO)NC(=O)[C@H](CO)NC(=O)[C@H](CCCNC(=N)N)NC(=O)[C@H](CCC(N)=O)NC(=O)[C@H](CC(C)C)NC(=O)[C@H](Cc1ccccc1)NC(=O)[C@H](CCCC(=O)O)NC(=O)[C@H](C)NC(=O)[C@H](CC(C)C)NC(=O)[C@H](CCCNC(=N)N)NC(=O)[C@H](CCC(=O)O)NC(=O)[C@@H](NC(=O)[C@H](C)NC(=O)[C@@H]1CCCCNC(=O)C[C@H](NC(=O)[C@H](CCCNC(=N)N)NC(=O)CC[C@H](NC(=O)CCCCCCCCCCCCCCCCCCC(=O)O)C(=O)O)C(=O)NCC(=O)N[C@@H]([C@@H](C)O)C(=O)N[C@@H](C)C(=O)N[C@@H]([C@@H](C)O)C(=O)N1)[C@@H](C)O,DLS,"phosphate buffer, propylene glycol, mannitol, NaCl","pH 6.1, 25 °C",,particle size,2.2 to 3.5 nm
COc1ccc2c(c1)C(C)(C)C(/C=C/C1=C(Oc3ccc(C(=O)NCCCCOc4cc(CN(Cc5ccccn5)Cc5ccccn5)cc(CN(Cc5ccccn5)Cc5ccccn5)c4)cc3)C(=C/C=C3/N(CCCCS(=O)(=O)[O-])c4ccc(OC)cc4C3(C)C)CCC1)=[N+]2CCCCS(=O)(=O)[O-].O=[N+]([O-])[O-].O=[N+]([O-])[O-].[99Tc+].[C-]#[O+].[C-]#[O+].[C-]#[O+].[Zn+2],,"BALB/c mouse, Staphylococcus aureus myositis, lungs",12 h,,tissue uptake,1.64 %ID/g and 29 %ID/g and 1.48 %ID/g and 0.73 %ID/g
O=C(Nc1cnccc1-c1ccc([18F])nc1)c1ccnc(NC(=O)C2CC2)c1,,"FVB/NJ mice (both sexes), bone","intravenous, dose not given, 120 min",,SUV,0.254
O=S(=O)(NCc1ccncc1)c1ccc(C2CCCCC2)cc1,,CK-p25 mouse and littermates,"intraperitoneal, 0.3 mg/kg daily, 6 weeks",,walking speed,no effect
CC(C)(O)c1ncc([S@](N)(=O)=NC(=O)Nc2c3c(cc4c2CCC4)CCC3)s1,"refers to: reproductive, breast disorders",healthy human,"oral, 200 mg, 14 days, SDD formulation, once daily",,subjects with TEAEs,14%
C=CC(=O)Nc1cc(Nc2nccc(-c3cn(C)c4ccccc34)n2)c(OC)cc1N(C)CCNC,storage stability,human dried blood spots,"24 h, on ice, medium QC level",,recovery,76.8%
CC(=O)N([O-])CCCCCNC(=O)CCC(=O)N([O-])CCCCCNC(=O)CCC(=O)N([O-])CCCCCN.[89Zr+4],radio-TLC,aqueous buffer,"7 d, pH 7.2, 37 °C, 89Zr-labelled complex, with: NiCl2 10-fold excess",,intact complex,98.6 ± 1.6%
CN1CCC[C@]1(C)/C=C/S(=O)(=O)NC(=O)Nc1c2c(cc3c1CCC3)CCC2,"refers to: transaminases increased, probably related",human,"oral, 50 mg twice daily, 14 days, multiple ascending dose",,subjects with adverse event,0%
O=C(NS(=O)(=O)c1cccs1)c1cc2ccccc2n1Cc1ccc(Br)c2ccccc12,,"Sprague-Dawley rat, male","oral, dose not given, 4 h",,plasma concentration,1320 ng/mL
C=C(NC(=O)c1csc(-c2nc3c(cc2O)-c2nc(cs2)C(=O)NC(C(C)O)C(=O)NC(=C(C)OC)c2nc(cs2)C(=O)NC2c4nc(cs4)C(=O)NC(COC(=O)c4c5c6c(cccc6n4O)COC(=O)C(OC4CC(C)(O)C(N(C)C)C(C)O4)C2OC5)c2nc-3cs2)n1)C(N)=O (stereo not drawn),,"male cynomolgus monkey, plasma","intravenous, 3 mg/kg, single dose, infusion",,half-life,4.71 h
CCN(CC)c1ccc2c(c1)O[B-]1(c3ccc(C)cc3)OC(=O)C(c3ccccc3)=N[N+]1=C2 (stereo not drawn),UV/vis decay,aqueous buffer,,,hydrolysis activation energy,22.2 kcal/mol
C=C[C@]1(C)C[C@@H](OC(=O)CSc2ccc(NC(=O)c3ccco3)cc2)[C@]2(C)[C@H](C)CC[C@]3(CCC(=O)[C@H]32)[C@@H](C)[C@@H]1O,,"Mycoplasma gallisepticum-infected chickens, plasma","intramuscular, 40 mg/kg, 6 h",,plasma concentration,113 ng/mL and 145 ng/mL and 91 ng/mL and 138 ng/mL and 311 ng/mL and 339 ng/mL and 135 ng/mL and 106 ng/mL
CC(C)CCCC(C)C1CCC2C3CC=C4CC(OC(=O)NCCOCCOCCOCCn5cc(CN(CCCNC(=O)c6ccc(C(=O)[O-])c(-c7c8ccc(=O)cc-8oc8cc(O)ccc78)c6)CCCNc6ncnc7c6ncn7C6OC(COP(=O)(O)OP(=O)(O)OP(=O)(O)OCC7OC(n8c[n+](C)c9c(O)nc(N)nc98)C(O)C7O)C(O)C6O)nn5)CCC4(C)C3CCC12C (stereo not drawn),fluorescence correlation spectroscopy,water,36 °C,,hydrodynamic radius,2 nm
Cc1nn(-c2nc3c(F)cc(F)cc3s2)c(O)c1C(c1ccc(C(F)(F)F)cc1)c1c(C)nn(-c2nc3c(F)cc(F)cc3s2)c1O,,ICR mouse,"oral, 50 mg/kg, 8.00 h",,plasma concentration,10700 ng/mL and 11500 ng/mL and 12300 ng/mL
CN(C)C(=O)c1cccc(N2Cc3cn(Cc4cc(F)cc(F)c4)nc3C2)c1,metabolic stability,"human, liver microsomes",,,half-life,1.17 h
O=C(Nc1cnccc1-c1ccc([18F])cc1)c1ccnc(NC(=O)C2CC2)c1,ex vivo gamma counting,"GSK-3β transgenic mice, late-stage, blood","intravenous, 1.26 MBq/animal, 120 min, mean, no P-gp inhibitor",,SUV,0.2
CC(C)C[C@H](NC(=O)[C@@H](CCCCNC(=O)[C@@H](Cc1ccccc1)NC(=O)CCCCCCCNC(=O)CN1CCN(CC(=O)O)CCN(CC(=O)O)CCN(CC(=O)O)CC1)NC(=O)[C@H](Cc1ccc(O)cc1)NC(=O)[C@H](CO)NC(=O)[C@H](Cc1c[nH]c2ccccc12)NC(=O)[C@H](Cc1c[nH]cn1)NC(=O)[C@@H]1CCC(=O)N1)C(=O)N[C@@H](CCCNC(=N)N)C(=O)N1CCC[C@H]1C(=O)NCC(N)=O [indium-111 labelled],biodistribution,"male athymic nude mice, DU-145 prostate cancer xenograft, bone","intravenous, 0.037 MBq, 1 h post-injection",,tissue uptake,0.88 ± 0.42 %ID/g
CCCCN1C(=O)c2cccc3c(NCCN4CCOCC4)ccc(c23)C1=O,,DMSO,,,fluorescence quantum yield,0.01
CN1CCC[C@]1(C)/C=C/S(=O)(=O)NC(=O)Nc1c2c(cc3c1CCC3O)CCC2 (stereo partly drawn),,"human, plasma","oral, 50 mg twice daily of parent drug, day 1, metabolite of dosed drug",,AUC(0-24),488 µg·h/mL
O=C(O)c1ccc(NC2=C/C(=N/S(=O)(=O)c3ccc4ccccc4c3)c3ccccc3C2=O)cc1,dynamic light scattering,buffer,20 µM,,hydrodynamic radius,12.5 nm
C[C@]12C[C@H](c3ccc(S(C)(=O)=O)cc3)C3=C4CCC(=O)C=C4CC[C@H]3[C@@H]1CC[C@@]2(O)C(F)(F)C(F)(F)F,refers to: compound (parent),"healthy human volunteers, pooled plasma","oral, 5 mg daily, day 28, 8 h",,plasma concentration,18.9 ng/mL
CCN(CC)c1ccc2c(c1)O[B-]1(c3ccccc3)OC(=O)C(c3ccccc3)=N[N+]1=C2C(C)C (stereo not drawn),UV/vis decay,aqueous buffer,,,hydrolysis activation energy,23.7 kcal/mol
CCCC[C@H]1C(=O)N(C)[C@@H](CCCC)C(=O)N[C@@H](CCCCNC(=S)Nc2ccc(CN3CCN(CC(=O)O)CCN(CC(=O)O)CC3)cc2)C(=O)N[C@H](C(=O)NCC(N)=O)CSCC(=O)N[C@@H](Cc2ccc(O)cc2)C(=O)N(C)[C@@H](C)C(=O)N[C@@H](CC(N)=O)C(=O)N2CCC[C@H]2C(=O)N[C@@H](Cc2cnc[nH]2)C(=O)N[C@@H](CCC(=O)O)C(=O)N2C[C@H](O)C[C@H]2C(=O)N[C@@H](Cc2c[nH]c3ccccc23)C(=O)N[C@@H](CO)C(=O)N[C@@H](Cc2cn(CC(=O)O)c3ccccc23)C(=O)N1C [fluorine-18 labelled],"PET, refers to: PD-L1","huCD34 mouse A-375 xenograft, whole tumour plane",pretreatment,,SUV,< 2 SUV
C/C(N)=N/C(=N\S(=O)(=O)c1ccc(C(F)(F)F)cc1)N1C[C@H](c2ccccc2)C(c2ccc(Cl)cc2)=N1,,"Beagle dog, plasma","oral, 6 mg/kg",,oral bioavailability,45.1%
N[C@@H](CC(=O)O)C(=O)OC(C(=O)O)c1ccc(Br)cc1[N+](=O)[O-] (mixture of isomers),"1H NMR, dark",50 mM sodium phosphate,"concentration not given, pH 7.0, room temperature, 12.5% DMSO-d6",,"hydrolysis half-life, B isomer",18.5 ± 0.2 h
Cc1nc(N)nc2c1C(=O)N[C@@H](c1ccc(F)cc1-c1cccc(O[11CH3])n1)C2,ex vivo biodistribution,"mice, MDA-MB-231 subcutaneous xenograft, brain","60 min post-injection, baseline, vehicle pre-treatment",,SUV,1.9 ± 0.4
CN1C(=O)[C@@H](Cc2ccc(O)c(I)c2)NC(=O)CNC(=O)[C@H](Cc2ccc3ccccc3c2)NC(=O)[C@H](CCCNC(=N)N)NC(=O)[C@H]1CCCNC(=O)c1ccc(CNC(=O)CN2CCN(CC(=O)O)CCN(CC(=O)O)CCN(CC(=O)O)CC2)cc1 [lutetium-177 labelled],"extrapolation method 1, OLINDA/EXM, refers to: 177Lu radioactivity","human, extrapolated from mice, stomach wall",,,absorbed dose coefficient,0.011 mGy/MBq
CC(C)OCCOCc1ccc(OCC(O)CN(N=O)C(C)C)cc1 (stereo not drawn),"mutation spectrum, duplex sequencing","NMRI mouse, liver",concentration not given,,T>A mutation fraction,increased
Cc1nc(N)nc2c1C(=O)N[C@@H](c1ccc(F)cc1-c1cccc(OCC[18F])n1)C2,ex vivo biodistribution,"C57BL/6 mouse, blood cells","intravenous, 1 MBq, 30 min, baseline, vehicle",,SUV,0.72 ± 0.02
Cc1cc(-c2ccc(C(=O)[C@@H]3CCCC[C@H]3C(=O)Nc3cnn4c3C(=O)NCC4)cc2)[nH]n1,,"human, faeces","oral, 200 mg, 0-96 h",reference: dose,cumulative radioactivity recovery,84.3% and 79.8% and 75.4% and 71.4% and 52.5%
